Published values gathered from unrelated publications.
Numbered parts are unrelated; each lists some results of a single study.
UniProt P17948, sequence (whole entry, looked up): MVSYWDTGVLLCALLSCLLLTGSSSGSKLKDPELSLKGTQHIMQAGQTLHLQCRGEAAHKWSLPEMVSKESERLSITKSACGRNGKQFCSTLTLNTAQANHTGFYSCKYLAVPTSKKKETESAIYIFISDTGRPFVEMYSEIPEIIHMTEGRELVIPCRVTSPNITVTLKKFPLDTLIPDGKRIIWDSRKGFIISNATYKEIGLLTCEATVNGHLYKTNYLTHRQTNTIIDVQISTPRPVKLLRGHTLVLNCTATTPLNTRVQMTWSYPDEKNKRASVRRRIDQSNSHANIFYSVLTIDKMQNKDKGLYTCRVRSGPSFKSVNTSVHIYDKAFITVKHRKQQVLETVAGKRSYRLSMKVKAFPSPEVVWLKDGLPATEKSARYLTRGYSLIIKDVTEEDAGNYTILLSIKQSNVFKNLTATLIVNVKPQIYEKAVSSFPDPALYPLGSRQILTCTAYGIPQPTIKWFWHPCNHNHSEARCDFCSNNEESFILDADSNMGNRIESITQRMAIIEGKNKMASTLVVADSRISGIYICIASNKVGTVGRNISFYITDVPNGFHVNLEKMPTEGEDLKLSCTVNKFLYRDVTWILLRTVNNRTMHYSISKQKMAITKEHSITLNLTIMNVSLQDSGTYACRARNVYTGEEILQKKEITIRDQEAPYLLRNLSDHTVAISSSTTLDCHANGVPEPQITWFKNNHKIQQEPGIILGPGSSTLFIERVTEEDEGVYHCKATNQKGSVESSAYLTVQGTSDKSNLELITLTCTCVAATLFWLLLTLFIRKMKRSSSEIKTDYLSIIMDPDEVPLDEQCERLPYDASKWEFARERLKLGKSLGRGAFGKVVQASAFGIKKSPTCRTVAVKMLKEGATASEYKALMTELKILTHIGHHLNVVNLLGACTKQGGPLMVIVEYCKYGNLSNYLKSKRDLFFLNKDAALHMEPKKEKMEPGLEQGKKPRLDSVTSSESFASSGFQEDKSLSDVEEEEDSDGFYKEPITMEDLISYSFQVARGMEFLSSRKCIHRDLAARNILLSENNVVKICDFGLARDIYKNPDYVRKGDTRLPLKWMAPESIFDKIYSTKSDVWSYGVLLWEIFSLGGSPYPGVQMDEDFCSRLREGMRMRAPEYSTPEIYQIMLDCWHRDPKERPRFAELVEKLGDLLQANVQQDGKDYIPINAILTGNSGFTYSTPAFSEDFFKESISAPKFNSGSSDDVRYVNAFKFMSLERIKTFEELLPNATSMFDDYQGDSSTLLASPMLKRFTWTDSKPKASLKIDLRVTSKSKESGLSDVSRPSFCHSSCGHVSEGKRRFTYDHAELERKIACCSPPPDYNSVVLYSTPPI
UniProt Q9GZQ4, sequence (whole entry, looked up): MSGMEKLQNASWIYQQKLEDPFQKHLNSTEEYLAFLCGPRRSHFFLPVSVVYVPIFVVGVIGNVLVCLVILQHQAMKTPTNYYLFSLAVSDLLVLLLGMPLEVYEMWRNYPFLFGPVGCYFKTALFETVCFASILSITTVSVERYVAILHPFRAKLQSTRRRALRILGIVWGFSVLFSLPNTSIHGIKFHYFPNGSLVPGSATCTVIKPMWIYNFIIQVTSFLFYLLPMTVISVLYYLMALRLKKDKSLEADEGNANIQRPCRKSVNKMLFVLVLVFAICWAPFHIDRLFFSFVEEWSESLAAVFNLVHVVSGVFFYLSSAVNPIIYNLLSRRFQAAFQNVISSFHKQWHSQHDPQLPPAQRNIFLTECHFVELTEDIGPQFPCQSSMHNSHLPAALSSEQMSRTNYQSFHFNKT
UniProt P49760, sequence (whole entry, looked up): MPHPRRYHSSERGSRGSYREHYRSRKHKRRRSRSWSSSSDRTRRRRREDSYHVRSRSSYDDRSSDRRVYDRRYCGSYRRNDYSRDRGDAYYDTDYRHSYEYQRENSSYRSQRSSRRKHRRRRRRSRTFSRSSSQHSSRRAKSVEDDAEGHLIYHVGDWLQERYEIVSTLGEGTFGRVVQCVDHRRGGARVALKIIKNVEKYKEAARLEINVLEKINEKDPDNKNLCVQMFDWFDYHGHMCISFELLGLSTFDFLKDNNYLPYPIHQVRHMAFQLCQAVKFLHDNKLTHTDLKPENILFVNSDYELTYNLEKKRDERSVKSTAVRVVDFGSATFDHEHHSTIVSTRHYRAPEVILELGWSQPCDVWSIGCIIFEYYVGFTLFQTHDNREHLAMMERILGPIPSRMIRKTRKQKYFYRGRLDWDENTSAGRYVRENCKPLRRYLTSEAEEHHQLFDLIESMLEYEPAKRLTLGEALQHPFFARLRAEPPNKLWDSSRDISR
UniProt Q8IW41, sequence (whole entry, looked up): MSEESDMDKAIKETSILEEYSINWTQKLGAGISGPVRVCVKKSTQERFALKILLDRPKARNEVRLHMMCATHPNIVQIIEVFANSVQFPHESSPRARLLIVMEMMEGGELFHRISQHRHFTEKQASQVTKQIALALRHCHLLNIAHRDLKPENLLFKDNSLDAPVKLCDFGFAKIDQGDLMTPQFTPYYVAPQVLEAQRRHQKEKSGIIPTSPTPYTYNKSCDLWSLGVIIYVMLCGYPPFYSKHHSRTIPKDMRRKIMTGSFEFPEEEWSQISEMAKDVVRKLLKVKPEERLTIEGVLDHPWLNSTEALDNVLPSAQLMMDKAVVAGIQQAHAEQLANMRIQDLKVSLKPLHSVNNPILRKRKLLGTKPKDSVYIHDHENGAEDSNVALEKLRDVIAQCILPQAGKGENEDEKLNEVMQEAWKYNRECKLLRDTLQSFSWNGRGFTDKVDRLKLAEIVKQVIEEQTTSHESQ
UniProt Q8TDV0, sequence (whole entry, looked up): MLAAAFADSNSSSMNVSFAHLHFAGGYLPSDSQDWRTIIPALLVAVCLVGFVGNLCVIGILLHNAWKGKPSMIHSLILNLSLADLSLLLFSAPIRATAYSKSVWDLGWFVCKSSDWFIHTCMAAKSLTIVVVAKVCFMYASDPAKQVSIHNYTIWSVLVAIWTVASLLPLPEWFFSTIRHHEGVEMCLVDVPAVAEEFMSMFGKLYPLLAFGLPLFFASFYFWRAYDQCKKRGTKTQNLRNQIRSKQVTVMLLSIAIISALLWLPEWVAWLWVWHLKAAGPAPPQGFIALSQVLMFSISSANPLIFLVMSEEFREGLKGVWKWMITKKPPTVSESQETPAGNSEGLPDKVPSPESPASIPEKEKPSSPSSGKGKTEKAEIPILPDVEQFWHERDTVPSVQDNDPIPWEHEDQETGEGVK
UniProt Q14012, sequence (whole entry, looked up): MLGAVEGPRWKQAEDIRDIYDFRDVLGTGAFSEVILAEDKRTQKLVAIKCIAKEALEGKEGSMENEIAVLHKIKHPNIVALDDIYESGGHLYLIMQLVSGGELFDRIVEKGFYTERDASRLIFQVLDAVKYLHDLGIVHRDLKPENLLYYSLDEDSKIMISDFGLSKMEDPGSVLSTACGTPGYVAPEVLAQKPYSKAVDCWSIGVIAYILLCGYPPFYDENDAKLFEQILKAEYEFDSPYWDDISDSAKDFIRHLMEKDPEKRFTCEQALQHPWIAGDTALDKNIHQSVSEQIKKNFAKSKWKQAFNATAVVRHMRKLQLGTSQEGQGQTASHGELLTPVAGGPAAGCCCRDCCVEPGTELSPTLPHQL
UniProt P23458, sequence (whole entry, looked up): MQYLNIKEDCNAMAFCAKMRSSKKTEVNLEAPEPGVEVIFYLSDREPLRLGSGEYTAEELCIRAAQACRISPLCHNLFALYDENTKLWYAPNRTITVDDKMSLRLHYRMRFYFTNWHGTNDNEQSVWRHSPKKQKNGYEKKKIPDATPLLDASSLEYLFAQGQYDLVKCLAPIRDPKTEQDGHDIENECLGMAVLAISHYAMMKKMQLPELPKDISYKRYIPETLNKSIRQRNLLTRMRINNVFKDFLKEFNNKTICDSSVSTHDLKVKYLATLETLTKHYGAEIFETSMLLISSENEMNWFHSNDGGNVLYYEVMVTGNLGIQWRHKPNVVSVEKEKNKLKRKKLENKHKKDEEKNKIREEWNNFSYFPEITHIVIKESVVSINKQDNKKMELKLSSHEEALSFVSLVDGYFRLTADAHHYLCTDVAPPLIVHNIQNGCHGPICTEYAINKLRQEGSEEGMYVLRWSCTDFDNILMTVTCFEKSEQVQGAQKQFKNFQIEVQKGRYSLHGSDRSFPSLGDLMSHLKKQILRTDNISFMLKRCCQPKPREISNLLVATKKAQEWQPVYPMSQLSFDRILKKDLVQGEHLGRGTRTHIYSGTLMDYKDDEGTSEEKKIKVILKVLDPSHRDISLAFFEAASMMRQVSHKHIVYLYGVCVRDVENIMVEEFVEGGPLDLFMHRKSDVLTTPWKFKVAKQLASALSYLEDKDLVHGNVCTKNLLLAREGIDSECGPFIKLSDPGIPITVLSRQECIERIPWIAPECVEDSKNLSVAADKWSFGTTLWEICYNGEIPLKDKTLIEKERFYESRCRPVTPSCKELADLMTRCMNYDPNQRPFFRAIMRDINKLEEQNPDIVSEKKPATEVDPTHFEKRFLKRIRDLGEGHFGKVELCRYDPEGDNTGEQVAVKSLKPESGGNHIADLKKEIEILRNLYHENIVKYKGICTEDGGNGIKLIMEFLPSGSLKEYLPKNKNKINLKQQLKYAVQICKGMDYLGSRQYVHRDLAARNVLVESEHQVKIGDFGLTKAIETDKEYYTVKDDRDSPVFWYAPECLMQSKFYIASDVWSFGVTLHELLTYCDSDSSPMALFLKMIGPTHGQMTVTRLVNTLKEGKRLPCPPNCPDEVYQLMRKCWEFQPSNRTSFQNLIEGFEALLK
UniProt P0DMS8, sequence (whole entry, looked up): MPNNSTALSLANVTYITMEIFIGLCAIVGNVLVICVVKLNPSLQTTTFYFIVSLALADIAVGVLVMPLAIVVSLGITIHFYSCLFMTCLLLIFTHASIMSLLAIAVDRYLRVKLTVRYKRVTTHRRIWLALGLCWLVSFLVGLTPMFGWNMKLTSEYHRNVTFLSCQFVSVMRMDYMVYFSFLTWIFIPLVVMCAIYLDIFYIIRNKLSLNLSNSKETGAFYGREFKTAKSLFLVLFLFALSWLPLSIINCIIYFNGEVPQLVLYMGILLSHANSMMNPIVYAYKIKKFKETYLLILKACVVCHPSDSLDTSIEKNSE

Series 1
SMILES: O=C1NC(c2ccccn2)Sc2ccccc21 (stereo not shown)
Effect on: cell-free assay
Method: competition with immobilised ligand
Concentration: 1 µM
It gave 82% for remaining binding (KDR (Homo sapiens, UniProt P35968)).
For Macrophage colony-stimulating factor 1 receptor, autoinhibited (CSF1R, Homo sapiens, UniProt P07333): remaining binding read 91%.
It gave 73% for remaining binding (MAPKAPK5 (Homo sapiens, UniProt Q8IW41)).
The remaining binding was 99% (PIK3C3 (Homo sapiens, UniProt Q8NEB9)).
It gave 81% for remaining binding (Cyclin-dependent kinase 4, with cyclin D3 (CDK4, Homo sapiens, UniProt P11802)).
The remaining binding was 100% (FLT1 (Homo sapiens, UniProt P17948)).
Tyrosine-protein kinase ABL1, phosphorylated (ABL1, Homo sapiens, UniProt P00519, Y253F) — remaining binding: 69%.
The remaining binding was 94% (IKBKE (Homo sapiens, UniProt Q14164)).

Series 2
SMILES: Nc1[nH]nc2nnc(-c3c(-c4ccccc4)nn4ccccc34)cc12
Effect on: enzyme activity
Action: inhibitor
Concentration: 0.5 µM
Baseline: control
SGK2 (Homo sapiens, UniProt Q9HBY8) — remaining activity: 98.8%.
The remaining activity was 98.3% (EPHA2 (Homo sapiens, UniProt P29317)).
The remaining activity was 104% (JAK1 (Homo sapiens, UniProt P23458)).
It gave 97.6% for remaining activity (TYRO3 (Homo sapiens, UniProt Q06418)).
RPS6KB2 (Homo sapiens, UniProt Q9UBS0) — remaining activity: 104%.
It gave 101% for remaining activity (MAP3K20 (Homo sapiens, UniProt Q9NYL2)).
SIK2 (Homo sapiens, UniProt Q9H0K1) — remaining activity: 93.6%.
It gave 98.2% for remaining activity (PAK5 (Homo sapiens, UniProt Q9P286)).
DYRK1A (Homo sapiens, UniProt Q13627) — remaining activity: 102%.
It gave 97.8% for remaining activity (FES (Homo sapiens, UniProt P07332)).
For CAMKK1 (Homo sapiens, UniProt Q8N5S9): remaining activity read 125%.
For PRKCZ (Homo sapiens, UniProt Q05513): remaining activity read 83.9%.
The remaining activity was 96.1% (TEC (Homo sapiens, UniProt P42680)).
PAK4 (Homo sapiens, UniProt O96013) — remaining activity: 101%.
CAMK1 (Homo sapiens, UniProt Q14012) — remaining activity: 102%.
The remaining activity was 105% (Cyclin-dependent kinase 5, with p35 (CDK5, Homo sapiens, UniProt Q00535)).
PRKCQ (Homo sapiens, UniProt Q04759) — remaining activity: 79.9%.
PAK1 (Homo sapiens, UniProt Q13153) — remaining activity: 91.9%.
For PIM1 (Homo sapiens, UniProt P11309): remaining activity read 100%.
It gave 98% for remaining activity (MARK1 (Homo sapiens, UniProt Q9P0L2)).
For EPHB3 (Homo sapiens, UniProt P54753): remaining activity read 96.8%.
CLK2 (Homo sapiens, UniProt P49760) — remaining activity: 94.9%.
FLT1 (Homo sapiens, UniProt P17948) — remaining activity: 96.7%.
The remaining activity was 96.4% (PAK6 (Homo sapiens, UniProt Q9NQU5)).
The remaining activity was 101% (Cyclin-dependent kinase 2, with cyclin E (CDK2, Homo sapiens, UniProt P24941)).

Series 3
Structure (SMILES): CCN(c1nc(N)c(C(=O)N=C(N)N)nc1Cl)C(C)C
Effect on: β-arrestin recruitment
Action: agonist
Method: PRESTO-Tango
Concentration: 10 µM
Baseline: untreated
The “fold over basal” was 0.55 (PTGFR (Homo sapiens, UniProt P43088)).
It gave 1.1 for “fold over basal” (CXCR2 (Homo sapiens, UniProt P25025)).
For ADGRG3 (Homo sapiens, UniProt Q86Y34): “fold over basal” read 1.1.
HCRTR1 (Homo sapiens, UniProt O43613) — “fold over basal”: 0.85 fold.
It gave 1.03 for “fold over basal” (ADORA3 (Homo sapiens, UniProt P0DMS8)).
The “fold over basal” was 0.73 (G-protein coupled receptor 151 (GPR151, Homo sapiens, UniProt Q8TDV0)).
For P2Y purinoceptor 14 (P2RY14, Homo sapiens, UniProt Q15391): “fold over basal” read 1.01.
It gave 0.87 for “fold over basal” (CMKLR1 (Homo sapiens, UniProt Q99788)).
NMUR2 (Homo sapiens, UniProt Q9GZQ4) — “fold over basal”: 0.72.
It gave 1.1 fold for “fold over basal” (TACR3 (Homo sapiens, UniProt P29371)).

Series 4
Cell line: HaCaT
Concentration: 100 µM
Time: 18 h
CC(=O)O[C@H]1CC[C@@]2(C)C(=CC[C@@H]3[C@@H]2CC[C@]2(C)C(c4cccnc4)=CC[C@@H]32)C1 gave a viability of 95.5%.
COc1ccc(-c2nc3ccc(C4=NNC(=O)CC4C)cc3[nH]2)cc1 (stereo not shown) has a viability of 28.2%.
With CC(=O)c1ccc(O)c(C(=O)O)c1 the viability was 119%.
With O=C(Nc1ccc([N+](=O)[O-])cc1Cl)c1cc(Cl)ccc1O the viability was 62.1%.
Cc1cn([C@H]2C=C[C@@H](CO)O2)c(=O)[nH]c1=O has a viability of 99.2%.
With COc1cc2nccc(Oc3ccc(NC(=O)NC4CC4)c(Cl)c3)c2cc1C(N)=O the viability was 98%.

Series 5
Target: Diamine acetyltransferase 1 (Homo sapiens, UniProt P21673)
Action: inhibitor
Concentration: 10 µM
Baseline: control
Residues (P21673 1-171): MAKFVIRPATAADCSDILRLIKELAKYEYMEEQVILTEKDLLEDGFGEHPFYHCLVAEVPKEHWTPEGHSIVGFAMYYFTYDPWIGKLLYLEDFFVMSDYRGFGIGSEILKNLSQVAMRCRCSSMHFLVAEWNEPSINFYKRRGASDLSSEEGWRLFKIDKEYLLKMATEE
The remaining activity of CC(=O)CCC=C(C)C is reported as 103%.
O=c1cc(-c2ccc(O)c(O)c2)oc2cc(O)ccc12 gave a remaining activity of 92.2%.
COc1cc(O)c2c(=O)cc(-c3ccc(OC)c(OC)c3)oc2c1 gave a remaining activity of 104%.
CCCCCCCCCCCCCC[C@@H](O)[C@@H](O)[C@@H](N)CO has a remaining activity of 93.8%.
For O=c1ccc2ccc(O[C@@H]3O[C@H](CO)[C@@H](O)[C@H](O)[C@H]3O)cc2o1, the remaining activity was 88.6%.
CC(C)=CCCC(C)CC=O (stereo not shown) gave a remaining activity of 83.2%.

Some of these lines once more (series 3):
The “fold over basal” was 0.55 (PTGFR (Homo sapiens, UniProt P43088)).
It gave 1.1 for “fold over basal” (CXCR2 (Homo sapiens, UniProt P25025)).
For ADGRG3 (Homo sapiens, UniProt Q86Y34): “fold over basal” read 1.1.
HCRTR1 (Homo sapiens, UniProt O43613) — “fold over basal”: 0.85 fold.
It gave 1.03 for “fold over basal” (ADORA3 (Homo sapiens, UniProt P0DMS8)).
The “fold over basal” was 0.73 (G-protein coupled receptor 151 (GPR151, Homo sapiens, UniProt Q8TDV0)).
For P2Y purinoceptor 14 (P2RY14, Homo sapiens, UniProt Q15391): “fold over basal” read 1.01.
It gave 0.87 for “fold over basal” (CMKLR1 (Homo sapiens, UniProt Q99788)).
NMUR2 (Homo sapiens, UniProt Q9GZQ4) — “fold over basal”: 0.72.
